# Results collected from several papers.
# Parts stem from different laboratories: compare values within a part only.
# Sequence of UniProt O95819 (whole entry, looked up): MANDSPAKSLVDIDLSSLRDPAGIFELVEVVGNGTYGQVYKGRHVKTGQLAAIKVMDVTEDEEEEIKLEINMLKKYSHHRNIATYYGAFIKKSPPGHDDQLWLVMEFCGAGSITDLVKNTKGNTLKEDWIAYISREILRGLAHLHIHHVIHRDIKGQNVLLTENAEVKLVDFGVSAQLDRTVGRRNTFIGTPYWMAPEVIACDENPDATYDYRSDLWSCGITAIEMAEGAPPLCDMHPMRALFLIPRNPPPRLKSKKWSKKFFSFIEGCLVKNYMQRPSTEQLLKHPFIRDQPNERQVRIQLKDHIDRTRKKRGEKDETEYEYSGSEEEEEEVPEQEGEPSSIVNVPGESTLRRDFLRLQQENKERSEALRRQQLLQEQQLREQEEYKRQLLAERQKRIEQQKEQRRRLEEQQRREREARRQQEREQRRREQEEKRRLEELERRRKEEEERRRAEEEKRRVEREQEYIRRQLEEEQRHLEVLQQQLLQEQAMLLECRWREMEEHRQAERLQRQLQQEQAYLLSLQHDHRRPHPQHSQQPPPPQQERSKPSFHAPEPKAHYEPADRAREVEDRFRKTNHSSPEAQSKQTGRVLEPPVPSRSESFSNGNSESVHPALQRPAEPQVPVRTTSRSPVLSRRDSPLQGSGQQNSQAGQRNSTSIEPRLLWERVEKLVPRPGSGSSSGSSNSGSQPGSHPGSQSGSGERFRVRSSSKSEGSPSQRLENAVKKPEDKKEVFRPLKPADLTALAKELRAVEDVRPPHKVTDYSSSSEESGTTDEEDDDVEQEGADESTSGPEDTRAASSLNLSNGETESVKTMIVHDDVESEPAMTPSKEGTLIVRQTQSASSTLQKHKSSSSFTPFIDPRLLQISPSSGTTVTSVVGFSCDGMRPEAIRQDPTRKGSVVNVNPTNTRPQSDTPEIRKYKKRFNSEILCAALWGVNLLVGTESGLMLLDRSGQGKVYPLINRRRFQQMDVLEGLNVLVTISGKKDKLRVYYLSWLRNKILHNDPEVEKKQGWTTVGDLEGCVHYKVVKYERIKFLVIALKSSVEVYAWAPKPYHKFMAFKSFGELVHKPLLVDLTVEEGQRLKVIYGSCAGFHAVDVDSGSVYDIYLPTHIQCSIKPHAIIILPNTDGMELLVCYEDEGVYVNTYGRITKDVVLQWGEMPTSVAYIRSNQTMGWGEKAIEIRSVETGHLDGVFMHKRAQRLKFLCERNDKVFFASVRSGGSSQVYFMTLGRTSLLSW
# Sequence of UniProt Q96SW2 (whole entry, looked up): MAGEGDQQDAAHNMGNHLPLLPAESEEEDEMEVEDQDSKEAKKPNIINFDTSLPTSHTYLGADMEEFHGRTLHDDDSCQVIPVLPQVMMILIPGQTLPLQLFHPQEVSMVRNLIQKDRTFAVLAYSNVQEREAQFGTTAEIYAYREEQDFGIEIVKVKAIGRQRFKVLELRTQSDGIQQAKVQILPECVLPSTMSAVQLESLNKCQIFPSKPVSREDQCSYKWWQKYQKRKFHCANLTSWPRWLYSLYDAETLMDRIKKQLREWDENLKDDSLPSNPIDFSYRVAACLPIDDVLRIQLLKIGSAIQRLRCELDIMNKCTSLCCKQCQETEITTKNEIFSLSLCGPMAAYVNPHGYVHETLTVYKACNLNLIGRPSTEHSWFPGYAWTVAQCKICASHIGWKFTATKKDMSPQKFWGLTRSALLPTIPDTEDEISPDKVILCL
# Sequence of UniProt Q9Y2K2 (whole entry, looked up): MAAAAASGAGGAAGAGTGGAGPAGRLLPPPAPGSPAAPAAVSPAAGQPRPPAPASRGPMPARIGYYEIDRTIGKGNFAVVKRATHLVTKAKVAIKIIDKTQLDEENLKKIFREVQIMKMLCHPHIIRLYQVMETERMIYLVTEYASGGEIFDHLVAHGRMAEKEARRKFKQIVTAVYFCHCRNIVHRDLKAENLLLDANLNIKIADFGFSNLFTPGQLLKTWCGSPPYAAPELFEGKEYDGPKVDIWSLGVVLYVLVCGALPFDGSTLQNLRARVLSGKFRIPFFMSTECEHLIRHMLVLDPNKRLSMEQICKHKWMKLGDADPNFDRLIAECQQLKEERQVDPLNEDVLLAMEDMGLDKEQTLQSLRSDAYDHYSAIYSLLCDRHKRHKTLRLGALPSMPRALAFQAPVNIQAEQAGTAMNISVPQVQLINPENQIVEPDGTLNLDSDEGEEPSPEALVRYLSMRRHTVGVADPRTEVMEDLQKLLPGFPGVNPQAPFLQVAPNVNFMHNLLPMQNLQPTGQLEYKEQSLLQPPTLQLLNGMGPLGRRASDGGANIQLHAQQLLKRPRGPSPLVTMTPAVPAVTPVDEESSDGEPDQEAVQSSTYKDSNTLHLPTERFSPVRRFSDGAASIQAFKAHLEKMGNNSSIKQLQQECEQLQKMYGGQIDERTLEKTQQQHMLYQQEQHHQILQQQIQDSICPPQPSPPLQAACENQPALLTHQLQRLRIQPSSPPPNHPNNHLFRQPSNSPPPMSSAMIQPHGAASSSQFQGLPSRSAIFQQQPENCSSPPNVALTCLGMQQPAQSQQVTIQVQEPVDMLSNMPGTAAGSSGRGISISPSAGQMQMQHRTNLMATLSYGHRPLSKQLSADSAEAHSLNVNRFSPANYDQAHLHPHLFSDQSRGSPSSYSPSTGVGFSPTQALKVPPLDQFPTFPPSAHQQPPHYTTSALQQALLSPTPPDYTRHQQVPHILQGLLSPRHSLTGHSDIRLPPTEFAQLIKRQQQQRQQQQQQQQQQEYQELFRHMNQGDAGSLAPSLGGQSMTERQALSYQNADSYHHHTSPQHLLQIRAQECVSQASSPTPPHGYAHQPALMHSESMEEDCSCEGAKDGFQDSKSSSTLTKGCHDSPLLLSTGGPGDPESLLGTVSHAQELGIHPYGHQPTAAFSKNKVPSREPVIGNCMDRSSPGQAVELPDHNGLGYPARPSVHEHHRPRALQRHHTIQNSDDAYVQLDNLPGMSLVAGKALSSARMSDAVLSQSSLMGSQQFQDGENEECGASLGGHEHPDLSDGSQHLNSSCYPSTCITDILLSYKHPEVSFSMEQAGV
# Sequence of UniProt Q00526 (whole entry, looked up): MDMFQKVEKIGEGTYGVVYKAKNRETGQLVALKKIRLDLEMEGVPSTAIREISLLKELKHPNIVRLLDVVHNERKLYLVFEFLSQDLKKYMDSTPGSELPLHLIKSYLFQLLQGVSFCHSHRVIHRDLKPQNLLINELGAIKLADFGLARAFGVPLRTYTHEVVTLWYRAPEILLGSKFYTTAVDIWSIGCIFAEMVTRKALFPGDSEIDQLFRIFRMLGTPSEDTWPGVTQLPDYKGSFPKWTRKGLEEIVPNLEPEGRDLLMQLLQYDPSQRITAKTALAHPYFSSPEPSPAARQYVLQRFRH
# Sequence of UniProt P45984 (whole entry, looked up): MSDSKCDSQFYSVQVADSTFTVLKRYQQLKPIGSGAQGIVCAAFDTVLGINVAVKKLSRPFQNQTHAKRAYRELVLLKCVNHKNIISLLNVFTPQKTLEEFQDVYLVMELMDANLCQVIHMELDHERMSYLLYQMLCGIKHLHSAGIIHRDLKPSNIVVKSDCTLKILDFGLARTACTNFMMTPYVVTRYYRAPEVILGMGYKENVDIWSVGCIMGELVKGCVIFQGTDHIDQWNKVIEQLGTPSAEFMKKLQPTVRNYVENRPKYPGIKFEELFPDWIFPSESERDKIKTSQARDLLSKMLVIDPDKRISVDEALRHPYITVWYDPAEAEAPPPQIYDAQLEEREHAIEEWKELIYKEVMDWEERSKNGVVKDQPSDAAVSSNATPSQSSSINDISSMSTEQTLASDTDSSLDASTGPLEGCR
# Sequence of UniProt O14936 (whole entry, looked up): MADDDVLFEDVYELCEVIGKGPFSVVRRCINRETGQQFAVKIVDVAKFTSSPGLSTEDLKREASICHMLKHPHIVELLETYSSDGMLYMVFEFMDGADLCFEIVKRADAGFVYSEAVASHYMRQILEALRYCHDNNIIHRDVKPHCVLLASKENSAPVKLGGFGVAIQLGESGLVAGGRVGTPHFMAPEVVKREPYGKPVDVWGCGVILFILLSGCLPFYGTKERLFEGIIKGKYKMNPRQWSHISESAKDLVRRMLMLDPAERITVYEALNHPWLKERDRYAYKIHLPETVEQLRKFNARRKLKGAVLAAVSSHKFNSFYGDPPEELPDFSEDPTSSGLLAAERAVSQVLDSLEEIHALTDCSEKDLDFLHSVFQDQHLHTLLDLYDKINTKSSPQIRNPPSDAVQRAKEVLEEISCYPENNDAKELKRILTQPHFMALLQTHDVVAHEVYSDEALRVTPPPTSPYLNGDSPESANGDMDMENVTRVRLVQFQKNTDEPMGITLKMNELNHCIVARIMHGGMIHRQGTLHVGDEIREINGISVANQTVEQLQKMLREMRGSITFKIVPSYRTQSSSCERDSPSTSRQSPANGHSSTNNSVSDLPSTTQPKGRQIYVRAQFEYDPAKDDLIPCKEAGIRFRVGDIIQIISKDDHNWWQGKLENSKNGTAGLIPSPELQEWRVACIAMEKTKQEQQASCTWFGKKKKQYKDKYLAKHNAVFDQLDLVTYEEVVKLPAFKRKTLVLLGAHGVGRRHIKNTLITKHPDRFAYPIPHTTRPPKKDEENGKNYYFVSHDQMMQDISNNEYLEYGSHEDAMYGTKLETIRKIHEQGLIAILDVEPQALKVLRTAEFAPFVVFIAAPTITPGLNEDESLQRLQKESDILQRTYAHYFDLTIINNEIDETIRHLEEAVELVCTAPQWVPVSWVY
# Sequence of UniProt Q9P289 (whole entry, looked up): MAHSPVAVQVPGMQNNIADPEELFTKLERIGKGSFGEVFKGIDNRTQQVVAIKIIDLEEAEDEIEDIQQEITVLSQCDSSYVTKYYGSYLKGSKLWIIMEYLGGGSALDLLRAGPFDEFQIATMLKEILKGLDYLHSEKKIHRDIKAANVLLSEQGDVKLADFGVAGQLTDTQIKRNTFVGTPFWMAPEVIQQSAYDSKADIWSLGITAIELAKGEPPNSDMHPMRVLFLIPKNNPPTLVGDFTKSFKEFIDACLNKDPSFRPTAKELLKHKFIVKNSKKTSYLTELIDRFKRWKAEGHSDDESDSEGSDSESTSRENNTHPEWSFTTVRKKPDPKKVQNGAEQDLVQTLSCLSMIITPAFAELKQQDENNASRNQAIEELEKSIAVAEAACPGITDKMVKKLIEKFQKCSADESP

# Sample 1
# Structure (SMILES): O=C1CCC(N2Cc3cc(C4CCN(Cc5ccccc5)CC4)ccc3C2=O)C(=O)N1 (centres unmarked)
# Mode: degrader
# Time: 6 h
target,test,system,setting,remaining protein [%]
"Zinc finger protein Aiolos (Homo sapiens, UniProt Q9UKT9)",HiBiT,HEK293,0.3704 µM,82.5
"DNA-binding protein Ikaros (Homo sapiens, UniProt Q13422)",HiBiT,HEK293,1.111 µM,100
"CRBN/Zinc finger protein Helios (Homo sapiens, UniProt Q96SW2+Q9UKS7)",flow cytometry,primary human regulatory T cells,0.004115 µM,101
"Sal-like protein 4 (SALL4, Homo sapiens, UniProt Q9UJQ4)",HiBiT,HEK293,10 µM,46.2
"Casein kinase I isoform alpha (CSNK1A1, Homo sapiens, UniProt P48729)",HiBiT,HEK293,0.04115 µM,91.6

# Sample 2
# Cell line: mouse MPNST tumor cells
# Method: high-content immunofluorescence imaging
# Refers to: nuclear SOX9
# Tested at: 10 µM
# Time: 12 h
# Setting: mean of 2 replicates
# Baseline: DMSO control
# Direction: higher = more nuclear SOX9
SMILES,nuclear SOX9 intensity
Cc1nc(C#Cc2cccnc2)cs1,118 % of DMSO
Cc1c(NC(=O)c2cccnc2)c(=O)n(-c2ccccc2)n1C,96.9 % of DMSO
NS(=O)(=O)c1cc2c(cc1Cl)N=C(CSCc1ccccc1)NS2(=O)=O,91.6 % of DMSO
CCCc1nc(C(C)(C)O)c(C(=O)OCc2oc(=O)oc2C)n1Cc1ccc(-c2ccccc2-c2nnn[nH]2)cc1,91.2 % of DMSO
O=[N+]([O-])c1ccc(CN2CCOCCOCCN(Cc3ccc([N+](=O)[O-])cc3)CCOCC2)cc1,114 % of DMSO
CC(=O)NCCSc1nc2cscc2c(=O)n1-c1ccc(OCC(F)(F)F)cc1,97 % of DMSO

# Sample 3
# Structure (SMILES): CN1CCN(c2cnc3c(C4CCN(C(=O)c5ccc(OC(F)(F)F)cc5N)CC4)ncnc3c2)CC1
# Observed: cell-free assay
# Method: competition with immobilised ligand
# Tested at: 1 µM
target,remaining binding [%]
"Serine/threonine-protein kinase Nek9 (NEK9, Homo sapiens, UniProt Q8TD19)",100
"Mitogen-activated protein kinase 9 (MAPK9, Homo sapiens, UniProt P45984)",100
"Serine/threonine-protein kinase D1 (PRKD1, Homo sapiens, UniProt Q15139)",85
"Mitogen-activated protein kinase kinase kinase kinase 4 (MAP4K4, Homo sapiens, UniProt O95819)",100
"Cyclin-dependent kinase 3 (CDK3, Homo sapiens, UniProt Q00526)",100
"3-phosphoinositide-dependent protein kinase 1 (PDPK1, Homo sapiens, UniProt O15530)",85
"Serine/threonine-protein kinase PAK 6 (PAK6, Homo sapiens, UniProt Q9NQU5)",100
"Serine/threonine-protein kinase WNK2 (WNK2, Homo sapiens, UniProt Q9Y3S1)",100
"Serine/threonine-protein kinase pim-2 (PIM2, Homo sapiens, UniProt Q9P1W9)",100
"Serine/threonine-protein kinase tousled-like 1 (TLK1, Homo sapiens, UniProt Q9UKI8)",100
"Testis-specific serine/threonine-protein kinase 1 (TSSK1B, Homo sapiens, UniProt Q9BXA7)",100
"Cyclin-dependent kinase 16 (CDK16, Homo sapiens, UniProt Q00536)",100
"Ribosomal protein S6 kinase alpha-5, N-terminal kinase domain (RPS6KA5, Homo sapiens, UniProt O75582)",100
"Fibroblast growth factor receptor 3 (FGFR3, Homo sapiens, UniProt P22607, G697C)",100
"Testis-specific serine/threonine-protein kinase 3 (TSSK3, Homo sapiens, UniProt Q96PN8)",68
"Mitogen-activated protein kinase 10 (MAPK10, Homo sapiens, UniProt P53779)",100
"Phosphatidylinositol 4,5-bisphosphate 3-kinase catalytic subunit alpha isoform (PIK3CA, Homo sapiens, UniProt P42336)",95
"Microtubule-associated serine/threonine-protein kinase 1 (MAST1, Homo sapiens, UniProt Q9Y2H9)",100
"TGF-beta receptor type-2 (TGFBR2, Homo sapiens, UniProt P37173)",88
"Peripheral plasma membrane protein CASK (CASK, Homo sapiens, UniProt O14936)",89
"Mitogen-activated protein kinase 15 (MAPK15, Homo sapiens, UniProt Q8TD08)",100
"Serine/threonine-protein kinase RIO2 (RIOK2, Homo sapiens, UniProt Q9BVS4)",100
"Serine/threonine-protein kinase SIK3 (SIK3, Homo sapiens, UniProt Q9Y2K2)",100
"Serine/threonine-protein kinase 26 (STK26, Homo sapiens, UniProt Q9P289)",98
"Tyrosine-protein kinase receptor UFO (AXL, Homo sapiens, UniProt P30530)",78

# Sample 4
# Species: mouse
# Sample: microsomes or S9
# Tested at: 2 µM
# Time: 0.5 h
Structure (SMILES),remaining compound [%]
CCCn1ccnc1C1CC(=O)Nc2cc(O)c(OC)cc21 (centres unmarked),83.4
Cc1cc(C)cc(NC(=O)N2Cc3c(sc4c3CCCC4)-n3cccc3C2c2cccs2)c1 (centres unmarked),31.2
Cn1cc(-c2n[nH]c(=O)c3ccccc23)c2ccccc21,0.0403
CCc1nc(-c2ccncc2)cc2c1sc1ccccc12,1.66
COc1ccc(-n2ccc3cc(NC(=O)N4CCCCC4)ccc32)cc1Cl,71.3
CC(CC(=O)O)CC(=O)Nc1sc(C(C)C)cc1C(N)=O (centres unmarked),95.5

# Sample 5
# Target: Diamine acetyltransferase 1 (Homo sapiens, UniProt P21673)
# Mode: inhibitor
# Tested at: 10 µM
# Baseline: control
# Residues (P21673 1-171): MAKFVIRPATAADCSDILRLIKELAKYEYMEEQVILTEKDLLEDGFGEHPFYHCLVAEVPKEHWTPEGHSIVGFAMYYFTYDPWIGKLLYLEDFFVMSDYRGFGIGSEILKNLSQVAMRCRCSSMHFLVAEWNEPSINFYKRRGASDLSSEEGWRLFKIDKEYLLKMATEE
SMILES,remaining activity [%]
CC=CC(=O)C1=C(C)C=CCC1(C)C,99.4
O=c1c(O)c(-c2ccc(O)c(O)c2)oc2cc(O[C@@H]3O[C@H](CO)[C@@H](O)[C@H](O)[C@H]3O)cc(O)c12,98.1
O=C(O)/C=C/CCCCCCCCC(=O)O,103
Nc1nc2ncc(CNc3ccc(C(=O)N[C@@H](CCC(=O)O)C(=O)O)cc3)nc2c(=O)[nH]1,101
OC/C=C/c1ccccc1,82.5
CC(C)[C@@H]1CC[C@@H](C)C[C@H]1O,87.3

# Sample 6
# Method: logD(dd/w) and ALogP
# Setting: JT method
SMILES,lipophilic permeability efficiency
CC(C)C[C@@H]1NC(=O)[C@H](CC(C)C)NC(=O)[C@H](CC(C)C)NC(=O)[C@H](C(C)C)NC(=O)[C@H](C)NC(=O)[C@H](Cc2cscn2)NC(=O)[C@H](CCC(=O)N2CCCC2)NC1=O,2.06
CC(C)C[C@@H]1NC(=O)[C@H](CC(C)C)NC(=O)[C@H](CC(C)C)NC(=O)[C@H](C(C)C)NC(=O)[C@H](C(C)C)NC(=O)[C@H](C)NC(=O)[C@H](C)NC1=O,2.49
CC(C)C[C@@H]1NC(=O)[C@H](CC(C)C)NC(=O)[C@@H](CC(C)C)NC(=O)[C@H](C(C)C)NC(=O)[C@H](C(C)C)NC(=O)[C@H](Cc2cscn2)NC(=O)[C@H](C)NC1=O,2.18
CC(C)C[C@@H]1NC(=O)[C@H](C(C)C)NC(=O)[C@H](Cc2cscn2)NC(=O)[C@@H](CC(C)C)NC(=O)[C@H](C(C)C)NC(=O)[C@H](CC(C)C)NC(=O)[C@@H](CC(C)C)NC1=O,2.26
CC(C)C[C@@H]1NC(=O)[C@H](C)NC(=O)[C@@H](CC(C)C)NC(=O)[C@@H](CC(C)C)NC(=O)[C@@H](Cc2cscn2)NC(=O)[C@H](CC(C)C)NC(=O)[C@@H](CC(C)C)NC1=O,2.27

# Excerpt of the above (sample 1):
target,test,system,setting,remaining protein [%]
"Zinc finger protein Aiolos (Homo sapiens, UniProt Q9UKT9)",HiBiT,HEK293,0.3704 µM,82.5
"DNA-binding protein Ikaros (Homo sapiens, UniProt Q13422)",HiBiT,HEK293,1.111 µM,100
"CRBN/Zinc finger protein Helios (Homo sapiens, UniProt Q96SW2+Q9UKS7)",flow cytometry,primary human regulatory T cells,0.004115 µM,101
"Sal-like protein 4 (SALL4, Homo sapiens, UniProt Q9UJQ4)",HiBiT,HEK293,10 µM,46.2
